Measured values gathered from unrelated publications.
A part holds a random share of what one study measured.

Block 1 — technique: RNA Bind-n-Seq; form: RNA; matrix: in vitro; tested at: 365 nM; reference: no-protein control; direction: higher = stronger binding
Target: RNA binding protein fox-1 homolog 2, RRM domain, GST-SBP tag (RBFOX2, Homo sapiens, UniProt O43251-10, residues 100-194)
Setting: natural RNA segment, single round, ends assumed
All sequences stand within: GGGAGUUCUACAGUCCGACGAUC … UGGAAUUCUCGGGUGCCAA
Target sequence (chain): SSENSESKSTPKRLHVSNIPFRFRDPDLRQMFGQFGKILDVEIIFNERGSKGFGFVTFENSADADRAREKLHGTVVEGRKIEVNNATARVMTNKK
Strand	RBNS enrichment (R)
CCGCUGGAGGAGGCUUUGGUGCAUGUUGCUGUGAAGUCCUUCCGUGUGGCCACCCAGCCAGCUGGAGCAGCACUGUGCCGUGUGUGUGUGUGUGUGUGUGUGUGUGUGUG	7.97
UCUCUGCUGCUUCUCUGGCUUGUUUCCUACAGCGGGGGCCUGUGGGAUUGAGUCUUGAGGAAUUCUCUCAGAUGAGAGCCAUAGGAGAUGGCCUCAUCUCCUGACUGUUU	0.698
UGGUAAACAUGUGAAGUCCUUUGGCUUAGUCAUACUUCAUAACUUUUGAACGUUGGGUUUUUUGUUGGAAGAAACUUGGAUGAAUCUGUCAUGUCAUUAACAGAACUGAA	0.501
UCCCUGCUUGGACACCUGAGCAUCUGAUUCCUGUCCCCCUGGUGCCAUCUGGCCUGGCUGGAGCCAGGAACAGGAGGGACACUUCCCCAGAAUCCGCAUGUUUCCCCAGU	1.61
GGCACUGCGCCCCACUGCCAGCUGCCCCUCCUGGGAGGGCCCGGGAGGAGGGUGCCACCCUCUCCCUGCCAGGGGCCUGGGGACCCUCUCCCUGGCUGCCUCAGGCUUCU	0.252
UAAUGAAAACUACCAUUAGCCAGUCUUUCUUACUGACAAUAAAUUAUUAAUAAAAUACUUGAGCUUUUGCCUCUUUUUCCUUCCCAUUGAUACUCCUGUUCAGGAUUCAG	0.431
AGUGCUUUUAACAAACUUAAGCUUCUGCCCUGCCAAGGGAAUUAAUGUUAUCUUGUGAAAGGUGUUGCUGUUUGAAUUGAUGAGAAAUGGAAGAUGAGAACUCCCUAAGA	0.359
CACUGUCCACGCACAUGGAGGAAAAGUUACUGCUGAAGACCCACUCGAUGGACGAUCUCAGCCUUGAGCCCCACGAGGAGCUUGCUUGCUGGGCUCAUCCUGUCUCCCCU	0.179
GUCUCGCUCUGUCGCCCAGUGUGGAGUGCAGUGGUGUGAUCUUGGCUCACUGCAAACUCCGCCUCCCAGGUUCAAGCGAUUCUCCCACCUCAGCCUCCUGAGUUGGGUCC	0.369
CUUCAUAGCUCCGCCCCAGUUGUGGCAGGAGACAUUCGAACAGACGUUUAGACGUUUAGAGUCCUCUUGGAAAAUAGGGCCGUGCGGGAACGGUUAUGAUUGCCAGCGUU	0.603
AUUCUGAUAUAUUUAAUUUAUAAAUUUCGGACUGAUAUAAUAGAGUUUUGGAAAACUAUAAGAAAUGCUUUGUUAAUGUGUGUAUUCCUAUGUAAAACACAUGGCUUUUC	0.82
GCCUCCUGACCCUCCCUGCACUUAGCCCUUCCAAGGGACAUCCAGUGGAGCACUGGCAUCUCGAGCUUGGGAAGGUCUUUAGAAUUAGGCUCUCUGGAGCAGGGCCUGUA	1.21

Block 2 — technique: protein binding microarray; form: double-stranded DNA, one strand shown; matrix: in vitro; tested at: not given; reference: not given; direction: higher = stronger binding
Target: Histone acetyltransferase KAT6A, both winged helices, GST fusion (KAT6A, Homo sapiens, UniProt Q92794, residues 1-181)
Setting: 8-mer, flanks averaged, mean of 2 arrays, mostly near background
Construct (chain): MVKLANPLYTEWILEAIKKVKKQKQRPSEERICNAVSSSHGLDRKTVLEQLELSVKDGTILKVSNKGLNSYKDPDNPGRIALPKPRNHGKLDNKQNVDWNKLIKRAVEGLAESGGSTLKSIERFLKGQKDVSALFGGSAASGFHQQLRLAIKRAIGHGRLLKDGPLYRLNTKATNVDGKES
Strand	E-score
GTAGCCGA	0.0663
TTAACCAA	-0.174
CTAACCAA	-0.145
ACGAGCTC	0.0299
CCGTTCCC	0.148
CCTGCTAA	-0.162
ATTGGGAA	-0.108
GAGACCTC	-0.071
ACGATGCC	0.0479
GTAAGGAC	0.102
ATCTAATG	-0.164
CGTGCACC	-0.0597
AGGAGCAA	-0.236
CAAACTAA	-0.0237
CTGTAGGA	-0.0859
CCCACACA	-0.148
GCGTCCCC	0.0287
CTCGTAGA	-0.181
AGAGTGAC	-0.123
AGTCCAGA	-0.198
ACCAGTCA	-0.0567
CGACTGCA	-0.0699
ATGGCCGG	0.104
ATTGTCTA	0.00236
CATCAGAG	-0.0397

Block 3 — technique: RNA Bind-n-Seq; form: RNA; matrix: in vitro; tested at: not given; reference: input RNA pool; direction: higher = stronger binding
Target: RING finger protein unkempt homolog, zinc fingers 1-6, GST-SBP tag (UNK, Homo sapiens, UniProt Q9C0B0, residues 30-357)
UniProt Q9C0B0, sequence (30-357, looked up): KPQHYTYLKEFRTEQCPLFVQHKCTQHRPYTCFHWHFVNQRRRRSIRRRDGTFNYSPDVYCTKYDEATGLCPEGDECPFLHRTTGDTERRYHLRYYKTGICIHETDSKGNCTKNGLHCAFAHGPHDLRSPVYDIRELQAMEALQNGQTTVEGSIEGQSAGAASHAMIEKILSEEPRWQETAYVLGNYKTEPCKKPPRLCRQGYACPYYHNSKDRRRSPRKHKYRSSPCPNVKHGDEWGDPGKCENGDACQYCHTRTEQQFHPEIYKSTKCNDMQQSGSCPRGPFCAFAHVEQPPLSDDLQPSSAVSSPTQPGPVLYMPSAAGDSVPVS
Setting: RNA with constant flanks, human and mouse sites, ends assumed
All sequences stand within: GGGAGUUCUACAGUCCGACGAUC … CAACAGAGGAUUGAGCAUCA
Strand	bound/input enrichment
ACUGUUGUUAAGCACUGUGUUCCAGACCGUGUCUGACUUAGUGUAACCUAGGAGAUUUUAUAGUUUUAUUUUAAUGAAACCCUGAUUGACGCACAGCAGUGGGGAGAACAGCGUCUUUUA	16 ratio
GAUUAUUUGUAAAACACACAAGAAACCAUCUCUGAUCUGCCUGUGCUAACCCAGCUGAACAAUGGAAGAUAUUUGUUGUAAAUUAAAGGAAUUGAUUUGUAUAUAGUUGCUGCCAUAAAU	0.238 ratio
AUGUCCUUUCCUGUGGAUAGUGUUGACAUAGGAUUCAGGAAUCAGGUUGAUGACAUCCGUAGCUUUUUGGAUUCCAGACAUCUUGACCACUACACAGUAUACAACUUGUCACCCAAGUCU	0.192 ratio
CAAGAAACAGAAGAUGCUAUUGGAUAUUGCUUGACAUUUGAACACAGAGAAAGAAUGUUUAAUAGACUCCAGGGAACAUGCUUCAAAGGACUUAAUGUUCUCAAGCAAUGUUGAGUUGGC	0.126 ratio
UAGACUUCAACAAGAAAAUCCUUCAUACAGCCUGGCAUCCCAAGGAAAACAUCAUUGCUGUAGCAACUACAAACAAUCUGUAUAUAUUUCAAGACAAAGUGAAUUAGGCUGGCAUUCUCU	0.538 ratio
ACUAAUGCAGUGAUCGCCGGCUUGAUAGUGUUGGAAGGAUUAAAGAUUUUAUCUGGAAAAAUAGACCAGUGUAGAACUAUUUUUUUGAAUAAGCAGCCAAACCCAAGAAAGAAGCUCUUG	1.17 ratio
GAUAGACCUCAAUAAAAGACAUAAUAUUUCUCCACCUGGCAGAAAAGUAACUGCCAAGUAAGAUUAAGAAAUAAGUUGAGCAUUUCUGGAGUAUAUUUCUCAUAAUUCUGCAGAGACUUC	0.393 ratio
GACUACCAGGCUGCUGGCGAUGAUGAGAUCUCCUUUGACCCUGAUGACAUCAUCACCAACAUAGAAAUGAUUGACGAUGGCUGGUGGCGUGGGGUGUGCAAGGGCAGAUACGGGCUCUUC	0.266 ratio
GCUUCUUGUAGUACAAACAUCAAUAAUCAGGAAAGUCAGGAACUUUCUGAAUCCCUGAAAGAUAGUGCCACCAGCAAAACUUUUGAAAAGAAUGUUGUACGGCAGAAUAAAGAAAGCAUA	0.35 ratio
AUUGCAUUUGUAGAAUUUGAGAAUGAUGGUCAGGCUGGAGCUGCCAGAGAUGCUCUGCAGGGGUUUAAGAUUACACCGUCCCAUGCCAUGAAGAUCACCUAUGCCAAGAAGUAACAUGUG	0.119 ratio
UCUUUUUGAGGGUCCUUUUGUUUUCCUUUGCUUUUCUUUUGGCCUUCCCUCUGUCUUUCACUUAGACCAGCUAUUUGAAAGGGCAGACGAUGCUAAAGGUGUACUGUGCAGCUUGUUUAG	0.155 ratio

Block 4 — technique: protein-binding microarray; form: double-stranded DNA, one strand shown; matrix: in vitro; tested at: 2540 nM top; setting: 60-bp whole probe; with: salmon DNA 0.4 mg/ml; reference: random background probes; direction: higher = stronger binding; all sequences stand within: GCCTAGCAC … GTCTTGATTCGCTTGACGCTGCTG
Target: Interferon regulatory factor 3, full length, phosphomimetic (IRF3, Homo sapiens, UniProt Q14653, residues 1-427, S386D/S396D/S398D/S402D/T404D/S405D)
Construct (chain): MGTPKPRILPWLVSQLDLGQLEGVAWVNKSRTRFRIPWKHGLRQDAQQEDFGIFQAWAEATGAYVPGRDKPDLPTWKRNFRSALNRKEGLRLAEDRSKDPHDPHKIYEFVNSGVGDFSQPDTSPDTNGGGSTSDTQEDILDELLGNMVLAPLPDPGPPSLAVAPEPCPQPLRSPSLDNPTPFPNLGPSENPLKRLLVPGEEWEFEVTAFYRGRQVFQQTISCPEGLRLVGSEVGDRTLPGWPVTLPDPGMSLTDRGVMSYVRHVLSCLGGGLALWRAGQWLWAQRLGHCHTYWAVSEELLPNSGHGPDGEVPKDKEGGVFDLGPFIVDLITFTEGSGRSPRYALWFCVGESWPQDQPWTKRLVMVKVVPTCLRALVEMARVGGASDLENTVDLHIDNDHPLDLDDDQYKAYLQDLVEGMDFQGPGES
Strand	fitted relative affinity [z-score]
TTAGGACTGGGGACAGGGTTAGTGCTA	-0.917
GACGGTTTCCTACTGCTGATGTGCTAG	4.97
TTAGGACTGCTCATCCTTTAGTGCTAG	-0.183
GATGGTATCGGGTATCGGGACGTGCTA	1.54
GCTTTTATCCCTGACAGAAGGTGCTAG	0.993
TTAGGTTTCGGTCTCGGATAGTGCTAG	8.46
ATATCTAAAAAGTCTCTGGGAGTGCTA	0.325
TCAATATCCATTATAGAACTGTGCTAG	1.92
GACGGACTGGGGAATCGGGACGTGCTA	-0.751
TCAAACCCCATTCTCAGACTGTGCTAG	1.21
ATGGCAAAAAAAAAAGATTTGTGCTAG	-0.687
TTCTCTTTCCTTCTTGATGCGTGCTAG	7.06
TTAGGTTACCTACTGCTTTAGTGCTAG	1.9
GACGATTTCGGGTATCGAGAGGTGCTA	1.71
TGAGGTTTCGGTTCCGGTTAGTGCTAG	10.7
ATAGGTCTCCTTCTCCTTTAGTGCTAG	4.07
GACGGTTTCGACTTTGGGGACGTGCTA	3.63
TCATGTTTGGGTCTTGTACTGTGCTAG	-0.174
TTAGATATCAGTTTCGATTCGTGCTAG	6.52
GACGATATTAGTTTCGAGACGTGCTAG	2.9
TTTACTTTCTACGTCTGATTGTGCTAG	3.98
TTAGGACTGGCTCTCGGTTAGTGCTAG	-0.938
GACGATATCAGGTTCGAGACGTGCTAG	0.603
TCACATCTCATATAAATAACTGTGCTA	1.4
GACGGACTTGGTTTCGGGACGTGCTAG	2.04

Repeated from above (block 2):
Strand	E-score
ATTGGGAA	-0.108
GAGACCTC	-0.071
ACGATGCC	0.0479
GTAAGGAC	0.102
ATCTAATG	-0.164
CGTGCACC	-0.0597
AGGAGCAA	-0.236
